# Measured values collected from several papers.
# Lines come from different studies, so protocols differ. ± marks the error that the study gave.
# Cell line: HepG2
SMILES,test,conditions,scale,endpoint,value
COC1C=COC2(C)Oc3c(C)c(O)c4c(c3C2=O)C2=NC3(CCN(CC(C)C)CC3)NC2=C(NC(=O)C(C)=CC=CC(C)C(O)C(C)C(O)C(C)C(OC(=O)c2cncnc2)C1C)C4=O (centres unmarked),,48 h,baseline: CC50 over MIC,selectivity index,4560
CC(C)=CCc1c(O)cc2c(c1O)C(=O)OC2,"cell growth or viability, CCK-8","20 µM, 24 h",,viability,93.3%
COC1=CC(c2ccc[nH]2)=NC1=CNC1CCCC1,"cell growth or viability, resazurin",,,IC50,30.5 µM
COc1cc(C=O)ccc1OC(=O)COC(=O)[C@]1(C)C2CC[C@]3(C)C(C(=O)C=C4C5[C@@H](C)[C@H](C)CC[C@]5(C)CC[C@]43C)[C@@]2(C)CC[C@H]1OC(C)=O (some centres unmarked),"cell growth or viability, MTT","25 µM, 24 h",,viability,86%
COc1ccc(C(=O)/C=C(\O)C(F)(F)C(F)(F)F)cn1,cell viability,"24 h, 10% FBS",,EC50,~10 µM
CC1=N[C@H](C)Cc2c(-c3ccc(C)cc3)ccc(O)c21,cytotoxicity,,,EC50,> 50 µM
Cc1nc(N(C)C)nc(C)c1O,,"100 µM, 24 h",baseline: untreated,intracellular ATP level,~1.8 fold control
CC1=CC(OC(=O)c2ccccc2)C2(COC(=O)c3ccccc3)CCC(=C(C)C)C2C(O)CC2(C)OC2CC1 (centres unmarked),"cell growth or viability, CCK-8","40 µM, 24 h",,viability,76.6%
COC1C=COC2(C)Oc3c(C)c(O)c4c(c3C2=O)C2=NC3(CCN(CC(C)C)CC3)NC2=C(NC(=O)C(C)=CC=CC(C)C(O)C(C)C(O)C(C)C(OC(=O)c2cccnc2)C1C)C4=O (centres unmarked),,48 h,baseline: CC50 over MIC,selectivity index,2080
COC1=CC(c2ccc[nH]2)=NC1=Cc1[nH]c(Cc2ccc(Cl)cc2)cc1Cc1ccc(Cl)cc1,"cell growth or viability, resazurin",,,IC50,> 250 µM
COc1cccc2c(-c3ccc(O)c4c3CCN=C4)ccc(OC(C)C)c12,cytotoxicity,,,EC50,> 50 µM
CC(C)=CCc1c(O)cc(CO)cc1O,"cell growth or viability, CCK-8","20 µM, 24 h",,viability,99.8%
CCCCN=Cc1[nH]c(-c2ccc[nH]2)cc1OC,"cell growth or viability, resazurin",,,IC50,23 µM
CC(C)[C@@H]1CC[C@@H](C)C[C@H]1O,"cell growth or viability, MTT","25 µM, 24 h",,viability,96%
CCc1c(C)[nH]c(C=NC23CC4CC(CC(C4)C2)C3)c1C,"cell growth or viability, resazurin",,,IC50,29.9 µM
Cc1ccc(C)c2sc(NC(=O)C3CCN(S(=O)(=O)c4ccc(F)cc4)CC3)nc12,MTT,"up to 30 µM, 24 h",,cytotoxicity,not toxic
COc1ccc(/C=N\NC(=O)[C@]2(C)C3CC[C@]4(C)C(C(=O)C=C5C6[C@@H](C)[C@H](C)CC[C@]6(C)CC[C@]54C)[C@@]3(C)CC[C@H]2OC(C)=O)cc1OC (some centres unmarked),"cell growth or viability, MTT","25 µM, 24 h",,viability,94%
CCC1=CC(=CNC23CC4CC(CC(C4)C2)C3)N=C1c1ccc[nH]1,"cell growth or viability, resazurin",,,IC50,15.2 µM
COc1cc(O)c(-c2cc(-c3cc(-c4c(O)cc5c(c4OC)[C@H](C)N[C@H](C)C5)c4cc(C)cc(OC)c4c3O)c(O)c3c(OC)cc(C)cc23)c2c1[C@H](C)N[C@H](C)C2,cytotoxicity,,,EC50,13.1 ± 3.5 µM
CCCCCCCCCCCCCCCC(=O)NCC(=O)N(CC(=O)N(CCCCN)CC(=O)N(CCN)CC(=O)N(CC(N)=O)C1CCCCC1)C1CCCCC1,"cytotoxicity, MTT",72 h,,TD50,85 ± 16 µg/mL
COc1cccc2c(-c3ccc(O)c4c3CC(C)(C)N=C4)ccc(OC(C)C)c12,cytotoxicity,,,EC50,> 50 µM
CCC1=C(C)C(c2ccc[nH]2)=NC1=CNC1CCCCCCC1,"cell growth or viability, resazurin",,,IC50,23.9 µM
O=[N+]([O-])c1ccc2c(c1)S(=O)(=O)C=C2,"cell growth or viability, WST-1",24 h,,IC50,10.8 µM
CC(=O)O[C@@H]1CC[C@@]2(C)C(CC[C@]3(C)C2C(=O)C=C2C4[C@@H](C)[C@H](C)CC[C@]4(C)CC[C@]23C)[C@@]1(C)c1nnc(SCC(=O)OC2CC(C)CCC2C(C)C)o1 (some centres unmarked),"cell growth or viability, MTT","25 µM, 24 h",,viability,99%
CNC(=O)c1c(F)cccc1Nc1nc(Nc2cc3c(cc2OC)CCN3C(=O)CN(C)C)nc2[nH]ccc12,cytotoxicity,,,pTC50,5.1
C[C@@H]1O[C@@H](O[C@H]2[C@H](O[C@H]3CC[C@@]4(C)C(CC[C@]5(C)C4CC=C4C6CC(C)(C)CC[C@]6(C(=O)O[C@@H]6O[C@H](CO)[C@@H](O)[C@H](O)[C@H]6O)CC[C@]45C)[C@]3(C)CO)OC[C@H](O)[C@@H]2O)[C@H](O)[C@H](O[C@@H]2OC[C@@H](O)[C@H](O)[C@H]2O)[C@H]1O (some centres unmarked),"cell growth or viability, CCK-8","50 µM, 24 h",,viability,69.3%
CC1=CC(=CNC23CC4CC(CC(C4)C2)C3)N=C1c1ccc[nH]1,"cell growth or viability, resazurin",,,IC50,30 µM
CCCCCCCCCCCCCC(=O)NCC(=O)N(CC(=O)N(CCCCN)CC(=O)N(CCN)CC(=O)N(CC(N)=O)C1CCCCC1)C1CCCCC1,"cytotoxicity, MTT",72 h,,TD50,> 200 µg/mL
CC1=N[C@H](C)Cc2c(-c3ccc4ccccc4c3)ccc(O)c21,cytotoxicity,,,EC50,> 50 µM
C=CCc1ccc(OC(=O)COC(=O)[C@]2(C)C3CC[C@]4(C)C(C(=O)C=C5C6[C@@H](C)[C@H](C)CC[C@]6(C)CC[C@]54C)[C@@]3(C)CC[C@H]2OC(C)=O)c(OC)c1 (some centres unmarked),"cell growth or viability, MTT","25 µM, 24 h",,viability,104%
CCCCCCCCCCCCCNCC(=O)N(CC(=O)N(CCCCN)CC(=O)N(CCN)CC(=O)N(CC(N)=O)c1ccc2c(c1)CCC2)c1ccc2c(c1)CCC2,"cytotoxicity, MTT",72 h,,TD50,91 ± 4 µg/mL
COC1C=COC2(C)Oc3c(C)c(O)c4c(c3C2=O)C2=NC3(CCN(CC(C)C)CC3)NC2=C(NC(=O)C(C)=CC=CC(C)C(O)C(C)C(O)C(C)C(OC(=O)Nc2cnccn2)C1C)C4=O (centres unmarked),,48 h,baseline: CC50 over MIC,selectivity index,2220
CC(C)=C1CC[C@]2(COC(=O)c3ccccc3)[C@@H](OC(=O)c3ccccc3)/C=C(\C)CC[C@@H]3O[C@@]3(C)C[C@@H](OC(=O)c3cccnc3)[C@@H]12,"cell growth or viability, CCK-8","10 µM, 24 h",,viability,97.2%
COc1ccc(OC)c(/C=N\NC(=O)[C@]2(C)C3CC[C@]4(C)C(C(=O)C=C5C6[C@@H](C)[C@H](C)CC[C@]6(C)CC[C@]54C)[C@@]3(C)CC[C@H]2OC(C)=O)c1 (some centres unmarked),"cell growth or viability, MTT","25 µM, 24 h",,viability,90%
O=C(CCl)Sc1nnc(-c2n[nH]c(=O)c3ccccc23)o1,"qRT-PCR, item: p53","IC50, 8 h",baseline: untreated,mRNA level,1.63 ± 0.18 fold
O=C(OCc1cccc(O)c1O)c1ccc(O)c(CO)c1,,"20 µM, 48 h",,cytotoxicity,not toxic
O=C(CN1C(C(=O)c2ccccc2)=C(O)c2ccccc2S1(=O)=O)Nc1ccccc1Br,MTT,concentration not given,baseline: DMSO,cytotoxicity,not toxic
COc1ccc(/C=N\NC(=O)[C@]2(C)C3CC[C@]4(C)C(C(=O)C=C5C6[C@@H](C)[C@H](C)CC[C@]6(C)CC[C@]54C)[C@@]3(C)CC[C@H]2OC(C)=O)cc1O (some centres unmarked),"cell growth or viability, MTT","25 µM, 24 h",,viability,90%
CCC1=C(C)C(=CNC2CCCCCCC2)N=C1c1ccc[nH]1,"cell growth or viability, resazurin",,,IC50,18.9 µM
CC(=O)O[C@@H]1CC[C@@]2(C)C(CC[C@]3(C)C2C(=O)C=C2C4[C@@H](C)[C@H](C)CC[C@]4(C)CC[C@]23C)[C@@]1(C)C(=O)N/N=C\c1ccccc1O (some centres unmarked),"cell growth or viability, MTT","25 µM, 24 h",,viability,99%
CC1(C)CC[C@]2(C(=O)O)CC[C@]3(C)C(=CC[C@@H]4[C@@]5(C)CC[C@H](O)[C@@](C)(C(=O)O)[C@@H]5CC[C@]43C)[C@@H]2C1,"cell growth or viability, MTT",72 h,,IC50,35.7 µM

# Excerpt of the above:
SMILES,test,conditions,scale,endpoint,value
COc1ccc(OC)c(/C=N\NC(=O)[C@]2(C)C3CC[C@]4(C)C(C(=O)C=C5C6[C@@H](C)[C@H](C)CC[C@]6(C)CC[C@]54C)[C@@]3(C)CC[C@H]2OC(C)=O)c1 (some centres unmarked),"cell growth or viability, MTT","25 µM, 24 h",,viability,90%
O=C(CCl)Sc1nnc(-c2n[nH]c(=O)c3ccccc23)o1,"qRT-PCR, item: p53","IC50, 8 h",baseline: untreated,mRNA level,1.63 ± 0.18 fold
O=C(OCc1cccc(O)c1O)c1ccc(O)c(CO)c1,,"20 µM, 48 h",,cytotoxicity,not toxic
O=C(CN1C(C(=O)c2ccccc2)=C(O)c2ccccc2S1(=O)=O)Nc1ccccc1Br,MTT,concentration not given,baseline: DMSO,cytotoxicity,not toxic
COc1ccc(/C=N\NC(=O)[C@]2(C)C3CC[C@]4(C)C(C(=O)C=C5C6[C@@H](C)[C@H](C)CC[C@]6(C)CC[C@]54C)[C@@]3(C)CC[C@H]2OC(C)=O)cc1O (some centres unmarked),"cell growth or viability, MTT","25 µM, 24 h",,viability,90%
